Results collected from several papers.
Protocols differ between the studies behind these lines. Numbers after ± are the reported error.

| SMILES | test | test system | conditions | scale | quantity | result |
| --- | --- | --- | --- | --- | --- | --- |
| N#C[C@@]1(c2ccc3c(N)ncnn23)O[C@H](CO)[C@@H](O)[C@H]1O | – | mouse plasma | 10 µM | – | fraction unbound | 0.915 |
| CN(C)C1(CNC(=O)c2ccc3c(c2)CCN3C(=O)c2ccccc2)CCOCC1 | equilibrium dialysis | mouse brain homogenate | pH 7.4 | – | fraction bound | 55.7% |
| Cl.N=C(CC(O)c1cc2c(F)cc(F)cc2c2cc(C(F)(F)F)ccc12)Nc1ccc(F)c(F)c1 (stereo not drawn) | equilibrium dialysis | human liver microsomes 0.5 mg/mL | 1 µM, 24 h | – | fraction bound | 0.98 |
| CCCC1O[C@@H]2C[C@H]3[C@@H]4CCC5=CC(=O)C=C[C@]5(C)[C@H]4[C@@H](O)C[C@]3(C)[C@]2(C(=O)CO)O1 (stereo partly drawn) | – | human hepatocytes | – | – | fraction unbound in incubation | 0.5 |
| C=C1C[C@@H]2[C@H](CC[C@]3(C)C(=O)CC[C@@H]23)[C@@]2(C)C=CC(=O)C=C12 | – | postmenopausal women, serum | oral, 25 mg daily, 1 year, UGT2B17 and GSTA1 genotypes | – | fraction of total metabolites | 0.19 ± 0.1 |
| CNCc1cc(-c2ccccc2F)n(S(=O)(=O)c2cccnc2)c1 | – | human plasma | – | – | fraction unbound in plasma | 0.135 |
| CN(C(=O)C(C)(C)c1cc(C(F)(F)F)cc(C(F)(F)F)c1)c1cnc(N2C[C@H]3COCCN3C[C@H]2CO)cc1-c1ccc(F)cc1[14CH3] | – | human liver microsomes | – | – | fraction unbound in microsomes | 0.519 |
| C[C@H]1CN(C(=O)CC#N)[C@]12CCN(c1ncnc3[nH]ccc13)C2 | – | healthy Japanese men, urine | oral, 50 mg, single dose | baseline: dose | fraction excreted unchanged | 74.9% |
| Cn1cc(-c2ccc(S(=O)(=O)[C@@H]3C[C@@H](C(=O)NC4(C#N)CC4)N(C(=O)C4(C(F)(F)F)CC4)C3)c(C(F)(F)F)c2)cn1 | – | FeSSIF | 0.08 mg/mL, up to 60 min, 37 °C | – | fraction dissolved | < 0.4 |
